Assay results gathered from unrelated publications.
Numbered parts are unrelated; each lists some results of a single study. Values joined by “and” are separate records of one study, mostly repeats; a detail may differ.
Sequence of UniProt Q9HBY8 (whole entry, looked up): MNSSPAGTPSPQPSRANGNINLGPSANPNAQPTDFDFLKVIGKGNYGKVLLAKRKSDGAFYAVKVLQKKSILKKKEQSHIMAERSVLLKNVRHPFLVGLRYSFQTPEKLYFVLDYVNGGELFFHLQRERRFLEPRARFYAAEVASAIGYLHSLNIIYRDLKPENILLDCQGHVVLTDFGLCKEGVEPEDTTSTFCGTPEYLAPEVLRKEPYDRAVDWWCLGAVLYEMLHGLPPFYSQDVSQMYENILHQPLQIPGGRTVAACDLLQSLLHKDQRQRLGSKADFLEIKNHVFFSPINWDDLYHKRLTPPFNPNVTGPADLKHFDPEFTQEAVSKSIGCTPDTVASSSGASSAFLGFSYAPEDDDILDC
Sequence of UniProt Q9UQ88 (whole entry, looked up): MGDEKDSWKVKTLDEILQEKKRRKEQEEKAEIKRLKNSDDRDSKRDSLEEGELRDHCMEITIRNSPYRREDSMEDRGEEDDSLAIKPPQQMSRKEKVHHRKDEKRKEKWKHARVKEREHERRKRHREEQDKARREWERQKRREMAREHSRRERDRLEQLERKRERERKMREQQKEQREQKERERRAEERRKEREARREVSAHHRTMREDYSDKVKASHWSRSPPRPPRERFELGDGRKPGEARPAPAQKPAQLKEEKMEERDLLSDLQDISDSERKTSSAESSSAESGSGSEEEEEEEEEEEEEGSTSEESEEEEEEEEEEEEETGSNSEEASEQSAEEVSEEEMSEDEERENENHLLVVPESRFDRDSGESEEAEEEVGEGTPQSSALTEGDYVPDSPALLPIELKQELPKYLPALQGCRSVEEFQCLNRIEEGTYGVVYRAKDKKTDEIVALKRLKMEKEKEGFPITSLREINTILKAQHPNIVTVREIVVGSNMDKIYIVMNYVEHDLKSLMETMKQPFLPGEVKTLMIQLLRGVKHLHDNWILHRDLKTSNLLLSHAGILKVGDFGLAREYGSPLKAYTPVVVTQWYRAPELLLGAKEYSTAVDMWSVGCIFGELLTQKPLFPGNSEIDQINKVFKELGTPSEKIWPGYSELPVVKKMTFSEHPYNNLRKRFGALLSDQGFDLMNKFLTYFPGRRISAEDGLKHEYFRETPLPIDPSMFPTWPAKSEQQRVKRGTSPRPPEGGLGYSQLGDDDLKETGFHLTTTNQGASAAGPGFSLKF
Sequence of UniProt Q14012 (whole entry, looked up): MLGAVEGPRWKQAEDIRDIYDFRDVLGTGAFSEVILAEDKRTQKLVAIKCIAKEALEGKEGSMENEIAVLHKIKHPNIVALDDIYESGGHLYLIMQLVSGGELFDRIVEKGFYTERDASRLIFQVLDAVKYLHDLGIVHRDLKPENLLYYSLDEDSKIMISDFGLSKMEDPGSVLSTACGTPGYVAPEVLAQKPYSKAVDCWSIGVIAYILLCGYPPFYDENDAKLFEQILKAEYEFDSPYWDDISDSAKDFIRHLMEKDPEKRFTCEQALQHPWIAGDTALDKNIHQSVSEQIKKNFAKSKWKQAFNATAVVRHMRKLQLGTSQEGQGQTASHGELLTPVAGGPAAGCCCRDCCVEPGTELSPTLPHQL

Set 1
Compound: O=C(O)c1cc(-c2ccc(C3CCNCC3)cc2)c2ccc(-c3ccc(C(F)(F)F)cc3)cc2c1
Technique: competition with immobilised ligand
Tested at: 1 µM
Endpoint: remaining binding
STK32A (Homo sapiens, UniProt Q8WU08); cell-free assay: 100%
EPHB2 (Homo sapiens, UniProt P29323); cell-free assay: 100%
CAMK2D (Homo sapiens, UniProt Q13557); cell-free assay: 100%
LYN (Homo sapiens, UniProt P07948); cell-free assay: 100%
MKNK1 (Homo sapiens, UniProt Q9BUB5); cell-free assay: 100%
NEK7 (Homo sapiens, UniProt Q8TDX7); cell-free assay: 100%
ABL2 (Homo sapiens, UniProt P42684); cell-free assay: 100%
RIPK4 (Homo sapiens, UniProt P57078); cell-free assay: 100%
FER (Homo sapiens, UniProt P16591); cell-free assay: 100%
CDK11A (Homo sapiens, UniProt Q9UQ88); binding: 100%
FLT1 (Homo sapiens, UniProt P17948); cell-free assay: 86%
DSTYK (Homo sapiens, UniProt Q6XUX3); cell-free assay: 100%
ALK (Homo sapiens, UniProt Q9UM73, C1156Y); cell-free assay: 100%
FLT3 (Homo sapiens, UniProt P36888); cell-free assay: 90%
CAMK1 (Homo sapiens, UniProt Q14012); cell-free assay: 100%
PKN2 (Homo sapiens, UniProt Q16513); cell-free assay: 100%
IKBKE (Homo sapiens, UniProt Q14164); cell-free assay: 100%
SGK2 (Homo sapiens, UniProt Q9HBY8); cell-free assay: 100%
BLK (Homo sapiens, UniProt P51451); cell-free assay: 86%
Tyrosine-protein kinase ABL1, phosphorylated (ABL1, Homo sapiens, UniProt P00519, Y253F); cell-free assay: 73%
Tyrosine-protein kinase ABL1, phosphorylated (ABL1, Homo sapiens, UniProt P00519); cell-free assay: 75%
Aurora kinase A (AURKA, Homo sapiens, UniProt O14965); cell-free assay: 100%
RET (Homo sapiens, UniProt P07949, M918T); cell-free assay: 92%
STK39 (Homo sapiens, UniProt Q9UEW8); cell-free assay: 100%
CAMK2B (Homo sapiens, UniProt Q13554); cell-free assay: 100%

Set 2
Target: DNA polymerase theta, ATPase domain (POLQ, Homo sapiens, UniProt O75417)
Sequence of UniProt O75417 (whole entry, unmodified, looked up): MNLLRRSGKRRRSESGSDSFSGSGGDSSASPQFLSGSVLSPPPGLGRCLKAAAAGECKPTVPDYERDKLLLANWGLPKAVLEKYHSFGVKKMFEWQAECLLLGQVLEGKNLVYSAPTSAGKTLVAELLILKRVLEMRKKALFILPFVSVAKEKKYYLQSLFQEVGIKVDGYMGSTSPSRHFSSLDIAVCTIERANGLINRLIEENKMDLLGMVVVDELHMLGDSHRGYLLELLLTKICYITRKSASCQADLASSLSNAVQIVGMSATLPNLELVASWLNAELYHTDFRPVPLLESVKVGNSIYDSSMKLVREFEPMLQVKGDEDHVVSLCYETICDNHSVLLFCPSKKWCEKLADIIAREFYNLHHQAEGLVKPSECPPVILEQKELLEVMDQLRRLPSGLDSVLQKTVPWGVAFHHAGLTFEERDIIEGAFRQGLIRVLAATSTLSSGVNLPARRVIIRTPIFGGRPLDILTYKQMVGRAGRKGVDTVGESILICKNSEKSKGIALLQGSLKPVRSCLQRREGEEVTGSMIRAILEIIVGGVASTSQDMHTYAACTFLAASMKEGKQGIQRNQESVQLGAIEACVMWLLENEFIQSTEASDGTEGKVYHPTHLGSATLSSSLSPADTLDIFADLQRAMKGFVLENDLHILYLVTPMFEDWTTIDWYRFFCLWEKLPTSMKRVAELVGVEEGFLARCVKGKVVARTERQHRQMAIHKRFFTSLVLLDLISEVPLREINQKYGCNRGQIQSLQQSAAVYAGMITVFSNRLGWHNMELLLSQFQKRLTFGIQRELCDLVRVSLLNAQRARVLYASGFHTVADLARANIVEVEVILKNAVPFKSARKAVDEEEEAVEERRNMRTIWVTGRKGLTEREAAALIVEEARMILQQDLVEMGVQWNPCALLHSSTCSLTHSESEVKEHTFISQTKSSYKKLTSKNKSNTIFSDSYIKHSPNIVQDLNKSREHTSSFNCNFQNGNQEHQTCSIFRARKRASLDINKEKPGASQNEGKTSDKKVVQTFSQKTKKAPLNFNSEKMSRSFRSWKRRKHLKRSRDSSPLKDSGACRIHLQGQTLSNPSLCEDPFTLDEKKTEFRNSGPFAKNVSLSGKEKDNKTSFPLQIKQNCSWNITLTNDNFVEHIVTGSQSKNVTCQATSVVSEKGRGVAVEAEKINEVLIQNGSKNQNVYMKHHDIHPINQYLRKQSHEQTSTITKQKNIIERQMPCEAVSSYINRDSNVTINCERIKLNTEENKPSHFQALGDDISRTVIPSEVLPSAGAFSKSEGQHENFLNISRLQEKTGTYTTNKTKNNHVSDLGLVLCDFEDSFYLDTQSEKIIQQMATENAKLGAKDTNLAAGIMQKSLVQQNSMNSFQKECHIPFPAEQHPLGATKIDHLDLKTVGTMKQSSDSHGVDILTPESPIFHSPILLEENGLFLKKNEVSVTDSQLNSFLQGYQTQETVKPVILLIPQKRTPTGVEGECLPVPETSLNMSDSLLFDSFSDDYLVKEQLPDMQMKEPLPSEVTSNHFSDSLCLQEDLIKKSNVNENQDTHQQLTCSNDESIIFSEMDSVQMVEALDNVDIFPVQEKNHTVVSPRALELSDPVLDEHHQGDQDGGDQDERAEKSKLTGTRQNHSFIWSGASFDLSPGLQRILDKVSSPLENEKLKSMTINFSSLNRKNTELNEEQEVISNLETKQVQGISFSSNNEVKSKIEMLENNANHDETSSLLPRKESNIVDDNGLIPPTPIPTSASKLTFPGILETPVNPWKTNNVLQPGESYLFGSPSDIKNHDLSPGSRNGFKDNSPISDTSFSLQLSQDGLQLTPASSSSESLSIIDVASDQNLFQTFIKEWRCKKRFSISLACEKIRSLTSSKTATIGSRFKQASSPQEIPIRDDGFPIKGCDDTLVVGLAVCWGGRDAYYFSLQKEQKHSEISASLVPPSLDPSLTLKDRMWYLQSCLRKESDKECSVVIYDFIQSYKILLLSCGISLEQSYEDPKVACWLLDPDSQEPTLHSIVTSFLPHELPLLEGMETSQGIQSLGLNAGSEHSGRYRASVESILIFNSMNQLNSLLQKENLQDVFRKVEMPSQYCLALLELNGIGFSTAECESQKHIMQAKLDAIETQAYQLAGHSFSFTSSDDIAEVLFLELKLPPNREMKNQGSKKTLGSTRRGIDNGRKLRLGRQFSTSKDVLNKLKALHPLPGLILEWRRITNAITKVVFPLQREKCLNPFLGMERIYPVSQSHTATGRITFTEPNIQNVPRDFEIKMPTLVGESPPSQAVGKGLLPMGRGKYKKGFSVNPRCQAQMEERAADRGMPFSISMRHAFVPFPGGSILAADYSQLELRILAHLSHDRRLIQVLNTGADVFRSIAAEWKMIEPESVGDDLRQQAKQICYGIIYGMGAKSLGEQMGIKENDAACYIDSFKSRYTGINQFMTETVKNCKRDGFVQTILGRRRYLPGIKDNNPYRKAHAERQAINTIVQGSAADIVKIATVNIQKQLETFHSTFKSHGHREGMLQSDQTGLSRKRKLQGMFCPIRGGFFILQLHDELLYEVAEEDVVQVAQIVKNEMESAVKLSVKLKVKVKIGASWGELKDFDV
Read-out: enzyme activity
Mode: inhibitor
Tested at: 77 µM
Reference: untreated
Endpoint: remaining activity
CCOC(=O)[C@H](CCc1ccccc1)N[C@@H](C)C(=O)N1CCC[C@H]1C(=O)O: 77% and 93.7%
NC[C@@H]1O[C@H](C23CC4CC(CC(C4)C2)C3)Cc2c1ccc(O)c2O: 105%
O=S(=O)(O)CCS: 91.1%
CC1(C)CCC(CN2CCN(c3ccc(C(=O)NS(=O)(=O)c4ccc(NCC5CCOCC5)c([N+](=O)[O-])c4)c(Oc4cnc5[nH]ccc5c4)c3)CC2)=C(c2ccc(Cl)cc2)C1: 95.5%
Cc1cc(=O)n(-c2ccccc2)n1C: 99.9% and 98.2%
COc1ccc2c(c1)c(CC(=O)O)c(C)n2Cc1ccc(Cl)cc1: 66.7%
O=C(Nc1ccccc1Br)N[C@@H]1CCN(c2ccc(C(F)(F)F)cn2)C1: 98.4%

Set 3
Target: Beta-1 adrenergic receptor (ADRB1, Homo sapiens, UniProt P08588)
Sequence of UniProt P08588 (whole entry, looked up): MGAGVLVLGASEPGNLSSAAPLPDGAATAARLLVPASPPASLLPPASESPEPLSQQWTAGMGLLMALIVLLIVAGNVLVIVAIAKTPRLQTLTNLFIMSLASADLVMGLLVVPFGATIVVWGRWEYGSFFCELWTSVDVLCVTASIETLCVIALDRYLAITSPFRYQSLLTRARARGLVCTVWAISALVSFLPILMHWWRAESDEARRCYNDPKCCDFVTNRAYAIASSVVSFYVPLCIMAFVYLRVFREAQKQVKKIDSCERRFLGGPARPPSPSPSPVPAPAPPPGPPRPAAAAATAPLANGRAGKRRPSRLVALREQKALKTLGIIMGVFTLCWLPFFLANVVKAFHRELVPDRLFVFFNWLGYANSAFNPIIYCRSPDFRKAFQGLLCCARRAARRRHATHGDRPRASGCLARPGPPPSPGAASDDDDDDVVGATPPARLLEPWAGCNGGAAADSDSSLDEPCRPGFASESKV
Mode: antagonist
Endpoint: IC50
O=c1cc(-c2ccccn2)oc2c(-c3cn[nH]c3)nccc12: ≥ 100 µM
CCN(Cc1cccc(S(=O)(=O)O)c1)c1cccc(C(=C2C=CC(=[N+](CC)Cc3cccc(S(=O)(=O)O)c3)C=C2)c2ccc(O)cc2S(=O)(=O)[O-])c1: 15.8 µM
COc1ccc2[nH]cc(C3CCN(CC(O)COc4ccccc4)CC3)c2c1 (stereo not shown): ≥ 100 µM
COc1ccccc1N1CCN([S+](=O)([O-])c2ccc(Cl)c(C)c2)CC1: ≥ 100 µM
c1ccc2c(-c3cnn4cc(-c5ccc(N6CCNCC6)cc5)cnc34)ccnc2c1: 3.98 µM

Set 4
Host: mouse
Matrix: microsomes or S9
Tested at: 2 µM
Time: 0.5 h
Endpoint: remaining compound
NCCO[C@H]1C[C@@H](O)C12CCN(CC(c1ccccc1)c1ccccc1)CC2: 74.9%
O=c1[nH]c2c(c(=O)n1-c1cccc(F)c1)[S+]([O-])CC2 (stereo not shown): 81.1%
Clc1ccc(-c2nc3cnc4ccccc4c3s2)cc1: 0.511%
COc1ccc(C)cc1N(CC(=O)Nc1ccc(S(=O)(=O)N2CCCC2)cc1)S(C)(=O)=O: 0.0602%
CCC1c2cccn2-c2sc3c(c2CN1C(=O)NCCCOC)CCCC3 (stereo not shown): 1.01%

Set 5
SMILES: O=C(Nc1cnn(-c2csc(C(=O)NC3COC3)c2)c1)Nc1c(F)cccc1Cl
Read-out: enzyme activity
Tested at: 5 µM
Endpoint: remaining activity
SGK2 (Homo sapiens, UniProt Q9HBY8); reference: untreated control: 88.5%
CLK3 (Homo sapiens, UniProt P49761); reference: untreated control: 90.4%
DYRK4 (Homo sapiens, UniProt Q9NR20); reference: untreated control: 93.5%
RPS6KA4 (Homo sapiens, UniProt O75676); reference: untreated control: 99.3%
BMPR1B (Homo sapiens, UniProt O00238); inhibitor: 114%

Set 6
Target: Calcium/calmodulin-dependent protein kinase type II subunit alpha (CAMK2A, Homo sapiens, UniProt Q9UQM7)
Sequence of UniProt Q9UQM7 (whole entry, looked up): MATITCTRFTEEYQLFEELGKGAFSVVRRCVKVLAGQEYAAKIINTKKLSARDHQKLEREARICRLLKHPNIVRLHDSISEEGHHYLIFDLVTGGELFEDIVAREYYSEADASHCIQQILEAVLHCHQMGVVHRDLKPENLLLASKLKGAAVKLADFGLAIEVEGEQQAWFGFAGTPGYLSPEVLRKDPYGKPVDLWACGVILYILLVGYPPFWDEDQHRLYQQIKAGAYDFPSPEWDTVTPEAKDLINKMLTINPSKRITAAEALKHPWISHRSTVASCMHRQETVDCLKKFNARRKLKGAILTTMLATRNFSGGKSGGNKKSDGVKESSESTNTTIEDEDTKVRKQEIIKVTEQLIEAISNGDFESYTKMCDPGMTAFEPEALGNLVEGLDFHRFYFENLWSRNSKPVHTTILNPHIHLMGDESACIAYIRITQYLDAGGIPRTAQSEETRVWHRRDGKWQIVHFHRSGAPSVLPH
Read-out: enzyme activity
Mode: inhibitor
Tested at: 10 µM
Endpoint: inhibition
C=C1CCC[C@]2(C)C[C@@H]3OC(=O)C(C)=C3C[C@@H]12: -3%
CC1(C)CCC[C@]2(C)[C@@H](C=O)C(C=O)=CC[C@@H]12: 4%
CC(C)=C[C@H]1C[C@](C)(O)[C@@H]2[C@H]3CC[C@@H]4[C@@]5(C)CC[C@H](O[C@@H]6OC[C@H](O)[C@H](O[C@@H]7O[C@H](CO)[C@@H](O)[C@H](O)[C@H]7O[C@@H]7OC[C@@H](O)[C@H](O)[C@H]7O)[C@H]6O[C@@H]6O[C@@H](C)[C@H](O)[C@@H](O)[C@H]6O)C(C)(C)[C@@H]5CC[C@@]4(C)[C@@]34CO[C@@]2(C4)O1: -11%
CCOC(=O)/C=C/c1ccc(OC)cc1: -2%
Cc1cc(O)cc2c1O[C@](C)(CCC[C@H](C)CCC[C@H](C)CCCC(C)C)CC2: 13%

Some of these lines once more (set 1):
STK32A (Homo sapiens, UniProt Q8WU08); cell-free assay: 100%
EPHB2 (Homo sapiens, UniProt P29323); cell-free assay: 100%
CAMK2D (Homo sapiens, UniProt Q13557); cell-free assay: 100%
LYN (Homo sapiens, UniProt P07948); cell-free assay: 100%
